Results of several laboratories.
Lines come from different studies, so protocols differ. ± gives the spread as reported.
UDP-3-O-acyl-N-acetylglucosamine deacetylase C40S: UDP-3-O-acyl-N-acetylglucosamine deacetylase (Pseudomonas aeruginosa, UniProt P47205, C40S)

SMILES = CC[C@H](C)[C@H](NC(=O)[C@H](CC(N)=O)NC(=O)[C@H](CCCCN)NC(=O)[C@H](CC(C)C)NC(=O)[C@@H](NC(=O)[C@H](CCCCN)NC(=O)[C@H](CO)NC(=O)[C@H](CC(C)C)NC(=O)[C@H](CO)NC(=O)[C@@H](NC(=O)[C@@H](NC(=O)[C@@H](NC(=O)[C@H](CC(=O)O)NC(=O)[C@H](CCCCN)NC(=O)[C@H](C)NC(=O)[C@H](C)NC(=O)[C@H](CCCCN)NC(=O)[C@H](Cc1ccc(O)cc1)NC(=O)[C@@H](NC(=O)[C@@H](N)CC(N)=O)[C@@H](C)CC)C(C)C)[C@@H](C)O)[C@@H](C)O)C(C)C)C(=O)N[C@@H](CC(N)=O)C(=O)N[C@@H](CCCCN)C(=O)O; target = Vinculin, Vd1 head domain (VCL, Homo sapiens, UniProt P18206); test = binding, isothermal titration calorimetry; conditions = 25 °C, Vd1 domain; Kd = 0.0049 ± 0.0009 µM
SMILES = N[C@@H](Cc1ccc(O)c(OC(F)(F)F)c1)C(=O)O; target = Iodotyrosine deiodinase (Haliscomenobacter hydrossis, UniProt F4KU78, Q108C); test = binding; Kd = 30 ± 1 µM
SMILES = CC[C@H](C)[C@H](NC(=O)[C@H](CC(=O)O)NC(=O)[C@H](C)NC(=O)[C@H](Cc1ccc(O)cc1)NC(=O)[C@H](CCCCN)NC(=O)c1ccc2c(c1)C(=O)OC21c2ccc(N(C)C)cc2Oc2cc(N(C)C)ccc21)C(=O)N[C@@H](CCC(=O)O)C(=O)N[C@@H](CO)C(=O)N[C@@H](CO)C(=O)N[C@@H](CC(N)=O)C(=O)N[C@@H](Cc1ccc(OP(=O)(O)O)cc1)C(=O)N[C@@H](CCSC)C(=O)N[C@@H](C)C(=O)N1CCC[C@H]1C(=O)N[C@@H](Cc1ccc(O)cc1)C(=O)N[C@@H](CC(=O)O)C(=O)N[C@@H](CC(N)=O)C(=O)N[C@@H](Cc1ccc(O)cc1)C(=O)N[C@@H](CC(=O)O)C(=O)O; target = TNS2, SH2 domain (Homo sapiens, UniProt Q63HR2); test = binding; Kd = 0.426 µM
SMILES = CSCC[C@H](NC(=O)[C@@H]1CCCN1C(=O)CNC(=O)c1ccc2c(c1)C(=O)OC21c2ccc(O)cc2Oc2cc(O)ccc21)C(=O)N[C@@H](CCC(N)=O)C(=O)N[C@@H](CO)C(=O)N[C@H](C(=O)N1CCC[C@H]1C(=O)N[C@@H](CC(C)C)C(=O)N[C@@H](CC(N)=O)C(=O)NCC(=O)O)[C@@H](C)OP(=O)(O)O; target = Serine/threonine-protein kinase PLK1, polo-box domain (PLK1, Homo sapiens, UniProt P53350); Kd = 0.0095 ± 0.0004 µM
SMILES = N[C@@H](Cc1c[nH]c2ccccc12)C(=O)O; target = Transcription attenuation protein MtrB, tandemly linked subunits (mtrB, Halalkalibacterium halodurans, UniProt Q9KCC6); test = binding, ITC; Kd = 4.5 ± 1.4 µM
SMILES = CC[C@@H](C)[C@@H](NC(=O)[C@@H](Cc1ccc(O)cc1)NC(=O)[C@H]1CCCN1C(=O)[C@@H](CCCNC(=N)N)NC(=O)[C@H](N)Cc1c[nH]cn1)C(=O)N[C@H](C)C(=O)N[C@H](Cc1c[nH]cn1)C(=O)N[C@H](CCCNC(=N)N)C(=O)N[C@H](CCCCNC(=O)c1cccc(S(=O)(=O)F)c1)C(=O)N[C@H](Cc1ccc(O)cc1)C(=O)N[C@H](CO)C(=O)N[C@H](Cc1ccccc1)C(N)=O; target = Programmed cell death 1 ligand 1 (CD274, Homo sapiens, UniProt Q9NZQ7); test = microscale thermophoresis; conditions = 6 h, His-tagged protein; Kd = 2.4 ± 3.1 µM
SMILES = CC1(CNC(=O)c2ccc(C#CC#Cc3ccccc3)cc2)NC(=O)NC1=O (stereo not drawn); target = UDP-3-O-acyl-N-acetylglucosamine deacetylase C40S; test = binding; Kd = 63.9 µM
SMILES = Nc1nc2c(ncn2[C@@H]2O[C@@H]3COP(=O)(O)O[C@H]4[C@@H](O)[C@H](n5cnc6c(=O)[nH]c(N)nc65)O[C@@H]4COP(=O)(O)O[C@H]3[C@H]2O)c(=O)[nH]1; target = Cell cycle histidine kinase CckA, R374A; cytoplasmic region (Caulobacter vibrioides, UniProt Q9X688, R374A); test = isothermal titration calorimetry; test system = Caulobacter crescentus; conditions = 12 °C, together with: AMPPNP 5 mM; Kd = 48 µM
SMILES = NCCc1ccccc1; target = SAR11_0271 Candidatus Pelagibacter; test = binding, ITC; conditions = one-set-of-sites model; Kd = 7.94 µM
SMILES = O=C(NO)[C@H]1COC(c2ccc(OC(F)(F)F)c(Cl)c2)=N1; target = UDP-3-O-acyl-N-acetylglucosamine deacetylase C40S; test = bio-layer interferometry; conditions = pH 7.0, 298 K, together with: ZnCl2 equimolar; Kd = 0.744 µM
SMILES = CCCC1COC(Cn2cncn2)(c2ccc(Cl)cc2Cl)O1 (stereo not drawn); target = Cytochrome P450 2A6 (CYP2A6, Homo sapiens, UniProt P11509); test = binding; conditions = 20 min, pH 7.4, purified protein, 2% DMSO; Kd = 25.1 µM
SMILES = CC[C@H](C)[C@H](NC(=O)[C@@H](NC(=O)[C@@H](NC(=O)[C@H](Cc1ccccc1)NC(=O)[C@H](C)NC(=O)[C@H](CCCNC(=N)N)NC(=O)CNC(=O)[C@@H]1CCCN1C(=O)CN)C(C)C)[C@@H](C)O)C(=O)O; target = H-2 class I histocompatibility antigen, D-D alpha chain, 18 (H2-D1, Mus musculus, UniProt P01900); test = thermodynamic cycle calculation; Kd = ~130 µM
SMILES = N[C@@H](Cc1ccc(O)c(I)c1)C(=O)O; target = Iodotyrosine deiodinase (Haliscomenobacter hydrossis, UniProt F4KU78, R38E); test = binding; Kd = 940 ± 140 µM
SMILES = C[C@H](N)C(=O)N[C@@H](CCCNC(=N)N)C(=O)N[C@H](C(=O)N[C@@H](CCCC[N+](C)(C)C)C(=O)N[C@@H](CCC(N)=O)C(=O)N[C@H](C(=O)N[C@@H](C)C(=O)N[C@@H](CCCNC(=N)N)C(=O)N[C@@H](CCCCN)C(=O)N[C@@H](CO)C(=O)O)[C@@H](C)O)[C@@H](C)O; target = PHD finger protein ING2, PHD finger (ING2, Arabidopsis thaliana, UniProt B3H615); test = binding, isothermal titration calorimetry; conditions = pH 7.0, together with: histone H3 peptide; Kd = 2.91 µM
SMILES = CC(=O)N[C@@H](CC(C)C)C(=O)N[C@@H](CC(=O)O)C(=O)N1CCC[C@H]1C(=O)N1CCC[C@H]1C(=O)N[C@@H](CC(C)C)C(=O)N[C@@H](Cc1c[nH]cn1)C(=O)N[C@@H](CO)C(=O)N[C@H](C(=O)N[C@@H](C)C(N)=O)[C@@H](C)OP(=O)(O)O; target = Serine/threonine-protein kinase PLK1, polo-box domain (PLK1, Homo sapiens, UniProt P53350, Y417A/Y421A); test = isothermal titration calorimetry; conditions = Y417A/Y421A double mutant; Kd = 1.04 µM
SMILES = CN1CCC[C@H]1c1cccnc1; target = Chrnd/Chrna1/Chrne (Mus musculus, UniProt P02716+P04756+P20782, G173R); Kd = 32 µM
SMILES = C[C@@H](O)[C@H](NC(=O)c1ccc(C#CC#Cc2ccccc2)cc1)C(=O)NO; target = UDP-3-O-acyl-N-acetylglucosamine deacetylase C40S; test = binding, thermal shift; conditions = pH 7.0, equimolar ZnCl2; Kd = 0.00835 µM
SMILES = c1cncc([C@@H]2CCCCN2)c1; target = Chrnd/Chrna1/Chrne (Mus musculus, UniProt P02716+P04756+P20782, G173K/S470W); test = single-channel kinetics; conditions = K chain side site; Kd = 2.23 µM
SMILES = CC[C@H](C)[C@H](NC(=O)[C@H](Cc1ccc(OP(=O)(O)O)cc1)NC(=O)[C@H](CCC(=O)O)NC(=O)[C@@H]1CCCN1C(=O)[C@@H](NC(=O)[C@@H]1CCCN1C(=O)[C@H](CC(C)C)NC(=O)[C@H](Cc1ccccc1)NC(=O)[C@@H](NC(=O)[C@H](CC(=O)O)NC(=O)[C@H](CC(=O)O)NC(=O)c1ccc2c(c1)C(=O)OC21c2ccc(N(C)C)cc2Oc2cc(N(C)C)ccc21)[C@@H](C)O)C(C)C)C(=O)N[C@@H](CC(N)=O)C(=O)N[C@@H](CCC(N)=O)C(=O)N[C@@H](CO)C(=O)N[C@H](C(=O)N1CCC[C@H]1C(=O)N[C@@H](CCCCN)C(=O)N[C@@H](CC(=O)O)C(=O)O)C(C)C; target = Proto-oncogene tyrosine-protein kinase Src, SH2 domain (SRC, Homo sapiens, UniProt P12931); test = binding; Kd = 1.79 µM
SMILES = O=C(O)CNC(=O)c1cccnc1; target = Ubiquitin carboxyl-terminal hydrolase 39, ZnF-UBD domain (Homo sapiens, UniProt Q53GS9); Kd = > 1000 µM
SMILES = CC(C)C[C@H](NC(=O)[C@@H](NC(=O)[C@H](CO)NC(=O)[C@H](CO)NC(=O)[C@@H](NC(=O)[C@H](CC(=O)O)NC(=O)[C@H](CC(C)C)NC(=O)[C@@H]1CCCN1C(=O)[C@H](CO)NC(=O)c1ccc2c(c1)C(=O)OC21c2ccc(N(C)C)cc2Oc2cc(N(C)C)ccc21)[C@@H](C)O)C(C)C)C(=O)N[C@@H](Cc1ccc(OP(=O)(O)O)cc1)C(=O)N[C@H](C(=O)N[C@@H](C)C(=O)N[C@H](C(=O)N[C@@H](CCC(N)=O)C(=O)N1CCC[C@H]1C(=O)N[C@@H](CC(N)=O)C(=O)N[C@@H](CCC(=O)O)C(=O)N[C@@H](CC(=O)O)C(=O)O)C(C)C)[C@@H](C)O; target = SH2 domain-containing adapter protein F, SH2 domain (SHF, Homo sapiens, UniProt Q7M4L6); test = binding; Kd = 1.63 µM
SMILES = CC[C@H](C)[C@@H]1NC(=O)[C@H](CCCNC(=N)N)NC(=O)[C@@H]2CCCN2C(=O)[C@H](Cc2ccccc2)NC(=O)[C@H]([C@@H](C)O)NC(=O)CNC(=O)[C@H](CC(C)C)NC(=O)[C@@H]2CCCN2C(=O)[C@H]([C@@H](C)O)NC(=O)[C@H](Cc2c[nH]c3ccccc23)NC(=O)[C@H](Cc2ccc(O)cc2)NC(=O)[C@H]([C@@H](C)CC)NC(=O)[C@H]([C@@H](C)O)NC(=O)[C@H]([C@@H](C)O)NC(=O)[C@@H](Cc2ccc(O)cc2)NC(=O)CSC[C@@H](C(N)=O)NC(=O)[C@H](CCCNC(=N)N)NC1=O; target = VPS26A/VPS35/VPS29 (Homo sapiens, UniProt O75436+Q96QK1+Q9UBQ0); test = binding; Kd = 0.053 ± 0.006 µM
SMILES = CSCC[C@H](NC(=O)CNC(=O)[C@H](Cc1ccccc1)NC(=O)[C@H](CC(=O)O)NC(=O)CNC(=O)c1ccc2c(c1)C(=O)OC21c2ccc(N(C)C)cc2Oc2cc(N(C)C)ccc21)C(=O)N[C@@H](CO)C(=O)N[C@@H](CCCNC(=N)N)C(=O)N[C@@H](CC(=O)O)C(=O)N[C@H](C(=O)N[C@@H](Cc1ccc(OP(=O)(O)O)cc1)C(=O)N[C@@H](CO)C(=O)N[C@H](C(=O)N[C@@H](CC(=O)O)C(=O)N[C@@H](Cc1ccc(O)cc1)C(=O)N[C@@H](Cc1ccc(O)cc1)C(=O)N[C@@H](CCCNC(=N)N)C(=O)N[C@H](C(=O)N[C@@H](CC(=O)O)C(=O)O)C(C)C)[C@@H](C)O)C(C)C; target = Transcription elongation factor SPT6, SH2 domain (SUPT6H, Homo sapiens, UniProt Q7KZ85); test = binding; Kd = 1.11 µM
SMILES = C[C@@H](O)[C@H](NC(=O)c1ccc(-c2ccccc2)cc1)C(=O)NCC1(C)NC(=O)NC1=O (stereo partly drawn); target = UDP-3-O-acyl-N-acetylglucosamine deacetylase C40S; test = binding; Kd = > 100 µM
SMILES = C[N+](C)(C)C; target = Chrnd/Chrna1/Chrne (Mus musculus, UniProt P02716+P04756+P20782, G173S/S470W); test = binding, agonist, single-channel recording; conditions = binding site chain S side; Kd = 81 µM
SMILES = CC(=O)N[C@@H](CC(N)=O)C(=O)N[C@@H](CC(C)C)C(=O)NCC(=O)N[C@@H](CCCCN)C(=O)N[C@@H](Cc1c[nH]cn1)C(=O)N[C@@H](CCC(=O)O)C(=O)N[C@@H](CCCCN)C(=O)N[C@@H](Cc1ccccc1)C(=O)N[C@@H](CO)C(=O)N[C@@H](CCC(=O)O)C(=O)N[C@H](C(=O)N[C@@H](CC(C)C)C(=O)N[C@@H](CCCCN)C(=O)N[C@@H](CCCNC(=N)N)C(=O)N[C@@H](CC(C)C)C(=O)N[C@@H](CCCNC(=N)N)C(=O)N[C@@H](CC(C)C)C(=O)N[C@@H](CCC(N)=O)C(N)=O)C(C)C; target = Calmodulin-1, N-lobe fragment (CALM1, Homo sapiens, UniProt P0DP23); test = ITC; conditions = N-lobe, together with: 1 mM CaCl2; Kd = 1.96 µM
SMILES = C/C(=C\C(=O)OCCCCCCCCC(=O)O)C[C@@H]1OC[C@H](C[C@@H]2O[C@H]2[C@@H](C)[C@H](C)O)[C@@H](O)[C@H]1O; target = Isoleucine--tRNA ligase (ileS, Staphylococcus aureus, UniProt Q5HGN8); Kd = 1.8e-05 ± 7e-06 µM
